Published values gathered from unrelated publications.
Lines come from different studies, so protocols differ. “And” joins repeats or separate records; there may be more than shown. ± marks the error that the study gave.

| Molecule | target | assay | test system | setting | scale | quantity | result |
| --- | --- | --- | --- | --- | --- | --- | --- |
| CC(C)(C)C(=O)Nc1ccc2[nH]c(CN3CCC(N(CCC(=O)N4CCS(=O)(=O)CC4)C[C@H]4O[C@@H](n5cnc6c(N)ncnc65)[C@H](O)[C@@H]4O)CC3)nc2c1 | human DOT1L R231Q | inhibitor, western blot, refers to: H3K79me2 over histone H3 | H460 DOT1L R231Q | concentration not given | reference: cpd over SGC0946 | H3K79me2 level ratio | 1.69 |
| CCn1cnc2c(N)ncnc21 | rhodopsin wild type-Rluc fusion | reporter gene | HEK293 | 24 h | – | EC50 | 11 µM |
| CC(C)(C)C(=O)Nc1ccc2[nH]c(CN3CCC(N(CCC(=O)NCC4CCCO4)C[C@H]4O[C@@H](n5cnc6c(N)ncnc65)[C@H](O)[C@@H]4O)CC3)nc2c1 (stereo partly shown) | human DOT1L R231Q | inhibitor, western blot, refers to: H3K79me2 over histone H3 | H460 DOT1L R231Q | concentration not given | reference: cpd over SGC0946 | H3K79me2 level ratio | 1.3 |
| O=C(O)c1ccc(Cl)c(N2C(=O)c3ccc4c(=O)n5c6ccc([N+](=O)[O-])cc6nc5c5ccc(c3c45)C2=O)c1 | TrkA | western blot | PC-12 | 1 µM, 15 min, with: NGF 50 pM | – | NGF-induced TrkA phosphorylation | decreased |
| CCCn1cnc2c(NCc3ccc(C)s3)nc(N[C@H](CC)CO)nc21 | Cav2.1 calcium channel | tail current integral, whole-cell patch clamp | HEK293 transfected with Cav2.1 | – | – | EC50 | 7.14 µM |
| CC(C)(C)C(=O)Nc1ccc2[nH]c(CN3CCC(N(CCC(=O)N4CCSCC4)C[C@H]4O[C@@H](n5cnc6c(N)ncnc65)[C@H](O)[C@@H]4O)CC3)nc2c1 | human DOT1L R231Q | inhibitor, western blot, refers to: H3K79me2 over histone H3 | H460 DOT1L R231Q | concentration not given | reference: cpd over SGC0946 | H3K79me2 level ratio | 0.854 |
| O=c1c(O[C@@H]2OC[C@@H](O)[C@H](O)[C@H]2O)c(-c2ccc(O)c(O)c2)oc2cc(O)cc(O)c12 | NAD(P)H quinone oxidoreductase, mouse | enzyme induction, inducer | Hepa-1c1c7 | concentration doubling activity | – | CD value | > 20 µM |
| COc1cc(C=O)cc(OC)c1O | UGT (rat) | p-NP glucuronidation, inhibitor | rat liver microsomes | – | – | lowest inhibitory concentration | ≥ 0.01 µM |
| O=C(/C=C/c1ccc2c(=O)n(CC3CCCCC3)cnc2c1)NO | histone deacetylase | enzyme activity, inhibitor | HeLa nuclear extract | – | – | IC50 | 0.124 ± 0.004 µM |
| KSPNPRF (Cy5.5-labelled) | human HER2 | flow cytometry | peptide, HT-29 | 1 h, 4 °C | – | Kd | 0.021 µM |
| MNYLH-OH | cytochrome P450 Blt (Micromonospora sp. MW-13) | substrate, LC-MS | peptide | overnight, 30 °C, P450 0.5 µM, with: NADH 2 mM | – | conversion to cyclic peptide | 39% |
| O=c1ccn([C@@H]2O[C@H](COP(=O)(O)OP(=O)(O)OP(=O)(O)O)[C@@H](O)[C@H]2O)c(=O)[nH]1 | P2Y2 receptor (human) RGE mutant | ERK1/2 phosphorylation, agonist | 1321N1 transfected | 5 min, 37 °C | reference: RGE mutant over wild type | potency shift | ~1000 fold |
| CC(=O)OCc1ccc(C=O)o1 | NAD(P)H quinone oxidoreductase, mouse | enzyme induction, inducer | Hepa-1c1c7 | concentration doubling activity | – | CD value | > 20 µM |
| CN(C[C@H]1O[C@@H](n2cnc3c(N)ncnc32)[C@H](O)[C@@H]1O)C1CCN(Cc2nc3cc(NC(=O)C(C)(C)C)ccc3[nH]2)CC1 | human DOT1L R231Q | inhibitor, western blot, refers to: H3K79me2 over histone H3 | H460 DOT1L R231Q | concentration not given | reference: cpd over SGC0946 | H3K79me2 level ratio | 1.06 |
| GWGSFFKKAAHVGKHVGKAALTHYL-NH2 (C-amide) | 15 bp duplex DNA | DNA binding, near-UV circular dichroism | peptide | room temperature, with: 1.66 µM DNA, peptide titrated | – | CD slope at 272 nm | -0.121 ± 0.003 |
| O=C(O)c1cc(O)c(O)c(O)c1 | NAD(P)H quinone oxidoreductase, mouse | enzyme induction, inducer | Hepa-1c1c7 | concentration doubling activity | – | CD value | > 20 µM |
| Nc1nc2c(ncn2[C@@H]2O[C@@H]3COP(=O)(O)O[C@H]3[C@H]2O)c(=O)[nH]1 | cone cyclic nucleotide-gated channel, Morone saxatilis | ion current, agonist, inside-out patch clamp | – | after EDTA/EGTA, -40 mV, with: calmodulin 200 nM, Ca2+ 20 µM, Mg2+ 100 µM | – | Hill coefficient | 2.55 and 2.1 |
| human clusterin | amyloid beta 1-40 | TIRF microscopy | – | 2 µM, 24 h, with: 2 µM amyloid beta 1-40, added at 4 h | – | average size of aggregated species | 780 ± 60 nm |
| O=c1ccc2ccccc2o1 | CYP2A6 human | 7-hydroxylation, substrate | human liver microsomes | CYP2A6 added 216 pmol/mg, ratio 0.5 | – | Vmax | 38.9 ± 16.2 min⁻¹ |

Some of these lines once more:
| Molecule | target | assay | test system | setting | scale | quantity | result |
| --- | --- | --- | --- | --- | --- | --- | --- |
| CN(C[C@H]1O[C@@H](n2cnc3c(N)ncnc32)[C@H](O)[C@@H]1O)C1CCN(Cc2nc3cc(NC(=O)C(C)(C)C)ccc3[nH]2)CC1 | human DOT1L R231Q | inhibitor, western blot, refers to: H3K79me2 over histone H3 | H460 DOT1L R231Q | concentration not given | reference: cpd over SGC0946 | H3K79me2 level ratio | 1.06 |
| GWGSFFKKAAHVGKHVGKAALTHYL-NH2 (C-amide) | 15 bp duplex DNA | DNA binding, near-UV circular dichroism | peptide | room temperature, with: 1.66 µM DNA, peptide titrated | – | CD slope at 272 nm | -0.121 ± 0.003 |
